Assay results from different studies.
Every numbered part comes from another study and shows a few of its results, in no order.
Sequence of UniProt P10721 (whole entry, unmodified, looked up): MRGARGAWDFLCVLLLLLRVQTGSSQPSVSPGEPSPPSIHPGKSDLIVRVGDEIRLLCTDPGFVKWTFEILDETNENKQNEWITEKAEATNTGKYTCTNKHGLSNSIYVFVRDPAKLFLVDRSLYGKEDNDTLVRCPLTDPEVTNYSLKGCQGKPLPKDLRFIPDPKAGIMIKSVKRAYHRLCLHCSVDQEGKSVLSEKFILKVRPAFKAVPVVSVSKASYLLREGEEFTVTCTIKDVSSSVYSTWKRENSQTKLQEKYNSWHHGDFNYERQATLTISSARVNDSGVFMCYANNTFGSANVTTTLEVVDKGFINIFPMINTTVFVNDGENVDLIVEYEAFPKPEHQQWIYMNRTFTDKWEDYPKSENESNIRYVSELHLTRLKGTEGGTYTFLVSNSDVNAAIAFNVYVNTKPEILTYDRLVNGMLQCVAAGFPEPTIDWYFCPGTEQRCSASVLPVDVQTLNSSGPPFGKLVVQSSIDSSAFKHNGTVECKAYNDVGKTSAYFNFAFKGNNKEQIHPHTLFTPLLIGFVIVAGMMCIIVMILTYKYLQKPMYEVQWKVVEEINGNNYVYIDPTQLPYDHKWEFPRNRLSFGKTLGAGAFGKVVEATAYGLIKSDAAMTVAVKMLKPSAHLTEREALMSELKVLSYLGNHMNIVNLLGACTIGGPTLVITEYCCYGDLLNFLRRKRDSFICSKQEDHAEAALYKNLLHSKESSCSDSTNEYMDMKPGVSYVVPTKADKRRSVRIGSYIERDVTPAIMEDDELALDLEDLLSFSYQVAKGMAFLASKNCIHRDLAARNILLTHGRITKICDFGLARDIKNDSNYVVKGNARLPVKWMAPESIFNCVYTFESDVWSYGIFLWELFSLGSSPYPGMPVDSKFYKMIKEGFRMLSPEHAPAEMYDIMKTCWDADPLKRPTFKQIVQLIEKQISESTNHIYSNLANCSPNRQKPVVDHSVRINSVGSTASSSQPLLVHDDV
Sequence of UniProt Q9H1R3 (whole entry, looked up): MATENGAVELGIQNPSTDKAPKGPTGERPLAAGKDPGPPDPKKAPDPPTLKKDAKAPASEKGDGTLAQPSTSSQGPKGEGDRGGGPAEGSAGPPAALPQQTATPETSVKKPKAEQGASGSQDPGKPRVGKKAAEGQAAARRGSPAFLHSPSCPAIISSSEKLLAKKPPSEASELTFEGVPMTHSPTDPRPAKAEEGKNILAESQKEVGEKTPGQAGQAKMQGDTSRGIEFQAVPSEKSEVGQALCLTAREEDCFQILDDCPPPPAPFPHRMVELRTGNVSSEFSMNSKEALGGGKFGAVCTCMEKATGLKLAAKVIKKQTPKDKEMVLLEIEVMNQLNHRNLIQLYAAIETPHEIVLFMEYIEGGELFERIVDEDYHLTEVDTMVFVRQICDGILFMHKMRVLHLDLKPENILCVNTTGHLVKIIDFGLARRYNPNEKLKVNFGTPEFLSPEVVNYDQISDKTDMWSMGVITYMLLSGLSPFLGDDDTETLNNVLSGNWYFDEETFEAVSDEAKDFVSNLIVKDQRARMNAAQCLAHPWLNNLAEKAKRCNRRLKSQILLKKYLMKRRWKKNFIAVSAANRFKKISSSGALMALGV
Sequence of UniProt Q05655 (whole entry, looked up): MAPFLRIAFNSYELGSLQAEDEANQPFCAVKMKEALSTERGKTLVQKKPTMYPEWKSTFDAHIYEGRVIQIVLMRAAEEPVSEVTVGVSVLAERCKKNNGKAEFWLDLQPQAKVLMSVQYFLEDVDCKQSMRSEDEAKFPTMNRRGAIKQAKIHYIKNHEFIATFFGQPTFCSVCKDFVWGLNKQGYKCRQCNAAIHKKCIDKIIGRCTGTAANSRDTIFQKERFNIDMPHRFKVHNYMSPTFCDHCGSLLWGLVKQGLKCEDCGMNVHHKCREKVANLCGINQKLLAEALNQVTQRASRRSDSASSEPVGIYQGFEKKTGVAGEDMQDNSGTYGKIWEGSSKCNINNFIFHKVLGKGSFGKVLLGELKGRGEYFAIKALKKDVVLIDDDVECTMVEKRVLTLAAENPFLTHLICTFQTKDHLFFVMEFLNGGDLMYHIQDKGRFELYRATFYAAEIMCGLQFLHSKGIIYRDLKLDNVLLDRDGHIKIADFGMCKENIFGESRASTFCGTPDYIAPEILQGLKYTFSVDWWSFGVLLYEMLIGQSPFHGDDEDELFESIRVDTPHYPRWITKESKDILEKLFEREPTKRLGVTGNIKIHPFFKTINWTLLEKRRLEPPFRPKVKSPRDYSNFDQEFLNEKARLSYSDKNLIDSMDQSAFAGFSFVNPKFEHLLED
Sequence of UniProt P42336 (whole entry, unmodified, looked up): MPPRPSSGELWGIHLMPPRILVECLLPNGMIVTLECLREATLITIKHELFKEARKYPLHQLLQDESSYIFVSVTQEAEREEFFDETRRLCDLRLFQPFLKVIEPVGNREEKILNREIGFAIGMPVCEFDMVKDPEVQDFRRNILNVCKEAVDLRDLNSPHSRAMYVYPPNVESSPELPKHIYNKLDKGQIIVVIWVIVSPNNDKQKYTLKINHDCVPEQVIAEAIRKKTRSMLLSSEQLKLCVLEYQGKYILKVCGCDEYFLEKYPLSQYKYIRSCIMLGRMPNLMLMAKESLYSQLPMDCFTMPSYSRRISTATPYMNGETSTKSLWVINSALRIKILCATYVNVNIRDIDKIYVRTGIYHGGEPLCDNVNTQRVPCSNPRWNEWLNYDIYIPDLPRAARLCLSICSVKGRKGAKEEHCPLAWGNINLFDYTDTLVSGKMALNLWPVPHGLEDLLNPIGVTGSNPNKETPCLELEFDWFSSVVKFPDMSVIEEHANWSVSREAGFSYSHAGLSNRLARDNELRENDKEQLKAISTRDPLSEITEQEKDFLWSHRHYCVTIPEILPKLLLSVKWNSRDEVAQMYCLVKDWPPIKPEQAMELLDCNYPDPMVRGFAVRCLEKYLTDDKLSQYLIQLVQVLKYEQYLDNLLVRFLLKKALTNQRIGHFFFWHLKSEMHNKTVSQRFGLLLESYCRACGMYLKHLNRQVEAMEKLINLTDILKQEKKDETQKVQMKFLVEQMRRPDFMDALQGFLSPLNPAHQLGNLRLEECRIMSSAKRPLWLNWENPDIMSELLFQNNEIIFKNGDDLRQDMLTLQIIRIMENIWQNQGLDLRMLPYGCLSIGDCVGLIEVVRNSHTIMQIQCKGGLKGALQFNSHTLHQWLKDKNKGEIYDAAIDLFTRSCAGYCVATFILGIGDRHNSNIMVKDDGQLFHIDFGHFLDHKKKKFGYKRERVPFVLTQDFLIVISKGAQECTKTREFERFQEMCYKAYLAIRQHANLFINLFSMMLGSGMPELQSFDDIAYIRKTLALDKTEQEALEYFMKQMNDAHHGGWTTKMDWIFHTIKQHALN
Sequence of UniProt P04629 (whole entry, looked up): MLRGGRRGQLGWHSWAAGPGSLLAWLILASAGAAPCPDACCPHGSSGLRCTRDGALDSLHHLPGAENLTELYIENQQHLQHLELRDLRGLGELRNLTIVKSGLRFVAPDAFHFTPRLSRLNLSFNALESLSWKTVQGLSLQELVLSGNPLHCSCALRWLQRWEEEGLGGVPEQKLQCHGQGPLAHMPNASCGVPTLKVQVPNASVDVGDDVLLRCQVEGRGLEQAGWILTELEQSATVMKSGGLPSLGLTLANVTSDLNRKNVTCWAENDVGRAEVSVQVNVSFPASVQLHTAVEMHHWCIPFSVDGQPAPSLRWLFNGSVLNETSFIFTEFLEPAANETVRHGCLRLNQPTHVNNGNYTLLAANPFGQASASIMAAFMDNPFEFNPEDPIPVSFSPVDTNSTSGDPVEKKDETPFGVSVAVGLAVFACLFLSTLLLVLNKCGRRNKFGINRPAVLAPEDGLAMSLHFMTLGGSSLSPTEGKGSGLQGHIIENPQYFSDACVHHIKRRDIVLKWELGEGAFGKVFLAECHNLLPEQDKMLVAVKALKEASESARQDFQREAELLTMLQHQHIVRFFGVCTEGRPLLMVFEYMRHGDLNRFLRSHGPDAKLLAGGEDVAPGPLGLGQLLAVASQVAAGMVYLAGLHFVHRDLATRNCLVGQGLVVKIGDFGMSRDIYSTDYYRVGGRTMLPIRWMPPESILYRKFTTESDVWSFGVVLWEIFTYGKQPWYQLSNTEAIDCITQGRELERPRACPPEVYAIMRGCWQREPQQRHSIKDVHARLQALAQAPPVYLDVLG

Sample 1
SMILES: CC(C)S(=O)(=O)c1ccc2nccc(Nc3ccc4sc(C5CCCC5)nc4c3)c2c1.Cl
Observed: kinase activity
Mode: inhibitor
Tested at: 1 µM
target | remaining activity [%]
STK26 (Homo sapiens, UniProt Q9P289) | 83
STK11 (Homo sapiens, UniProt Q15831) | 105
NTRK1 (Homo sapiens, UniProt P04629) | 95
MYLK2 (Homo sapiens, UniProt Q9H1R3) | 112
STK3 (Homo sapiens, UniProt Q13188) | 100
IRAK4 (Homo sapiens, UniProt Q9NWZ3) | 110
LTK (Homo sapiens, UniProt P29376) | 103
MAP4K3 (Homo sapiens, UniProt Q8IVH8) | 88
PRKCD (Homo sapiens, UniProt Q05655) | 91
RET (Homo sapiens, UniProt P07949) | 101
PRKCQ (Homo sapiens, UniProt Q04759) | 97
MARK4 (Homo sapiens, UniProt Q96L34) | 94
KIT (Homo sapiens, UniProt P10721) | 78
AKT3 (Homo sapiens, UniProt Q9Y243) | 100

Sample 2
Compound: N#CC(c1ccnc(NCCc2cccnc2)n1)c1nc2ccccc2s1 (stereo not shown)
Observed: enzyme activity
Mode: inhibitor
Tested at: 0.5 µM
Reference: control
target | remaining activity
RPS6KA5 (Homo sapiens, UniProt O75582) | 98.9%
CAMK2B (Homo sapiens, UniProt Q13554) | 97.3%
PRKACG (Homo sapiens, UniProt P22612) | 101%
STK16 (Homo sapiens, UniProt O75716) | 79.2%
MAPKAPK3 (Homo sapiens, UniProt Q16644) | 102%
STK17A (Homo sapiens, UniProt Q9UEE5) | 94%
SRMS (Homo sapiens, UniProt Q9H3Y6) | 106%
PDPK1 (Homo sapiens, UniProt O15530) | 95.9%
EPHA4 (Homo sapiens, UniProt P54764) | 104%
HIPK4 (Homo sapiens, UniProt Q8NE63) | 97.6%
EPHB1 (Homo sapiens, UniProt P54762) | 90.9%
AXL (Homo sapiens, UniProt P30530) | 106%
DYRK3 (Homo sapiens, UniProt O43781) | 103%
TSSK2 (Homo sapiens, UniProt Q96PF2) | 102%
HIPK2 (Homo sapiens, UniProt Q9H2X6) | 95.8%
WNK3 (Homo sapiens, UniProt Q9BYP7) | 81.3%
RPS6KA6 (Homo sapiens, UniProt Q9UK32) | 87%
EPHB4 (Homo sapiens, UniProt P54760) | 99.7%
Cyclin-dependent kinase 1, with cyclin B (CDK1, Homo sapiens, UniProt P06493) | 96.8%
PHKG1 (Homo sapiens, UniProt Q16816) | 89%
BLK (Homo sapiens, UniProt P51451) | 102%
ABL1 (Homo sapiens, UniProt P00519) | 96.3%
Cyclin-dependent kinase 4, with cyclin D3 (CDK4, Homo sapiens, UniProt P11802) | 85.7%
Cyclin-dependent kinase 6, with cyclin D3 (CDK6, Homo sapiens, UniProt Q00534) | 94.6%
MAP4K4 (Homo sapiens, UniProt O95819) | 87.1%

Sample 3
Structure (SMILES): CO[C@@H](C)c1c(Nc2ccc([C@H](N(C)C(=O)C3CCS(=O)(=O)CC3)C(F)(F)F)cc2)cnc2cc(Cl)nn12
Observed: cell-free assay
Technique: competition with immobilised ligand
Tested at: 1 µM
target | remaining binding
MARK2 (Homo sapiens, UniProt Q7KZI7) | 100%
MYLK2 (Homo sapiens, UniProt Q9H1R3) | 83%
FLT3 (Homo sapiens, UniProt P36888) | 68%
EGFR (Homo sapiens, UniProt P00533, G719C) | 100%
ULK2 (Homo sapiens, UniProt Q8IYT8) | 96%
STK39 (Homo sapiens, UniProt Q9UEW8) | 50%
CSNK2A2 (Homo sapiens, UniProt P19784) | 100%
PIK3CA (Homo sapiens, UniProt P42336, I800L) | 55%
DAPK3 (Homo sapiens, UniProt O43293) | 91%
KIT (Homo sapiens, UniProt P10721, V559D) | 100%
SGK2 (Homo sapiens, UniProt Q9HBY8) | 91%
MAPK11 (Homo sapiens, UniProt Q15759) | 79%
MAP3K4 (Homo sapiens, UniProt Q9Y6R4) | 89%
MAP4K2 (Homo sapiens, UniProt Q12851) | 100%
BMPR2 (Homo sapiens, UniProt Q13873) | 91%

Sample 4
SMILES: C=CCc1ccc(O)c(-c2cc(CC=C)ccc2O)c1
Observed: chloride current
ANO1 del476-501/R541A: Anoctamin-1 (ANO1, Homo sapiens, UniProt Q5XXA6, del476-501/R541A)
Sequence of UniProt Q5XXA6 (whole entry, unmodified, looked up): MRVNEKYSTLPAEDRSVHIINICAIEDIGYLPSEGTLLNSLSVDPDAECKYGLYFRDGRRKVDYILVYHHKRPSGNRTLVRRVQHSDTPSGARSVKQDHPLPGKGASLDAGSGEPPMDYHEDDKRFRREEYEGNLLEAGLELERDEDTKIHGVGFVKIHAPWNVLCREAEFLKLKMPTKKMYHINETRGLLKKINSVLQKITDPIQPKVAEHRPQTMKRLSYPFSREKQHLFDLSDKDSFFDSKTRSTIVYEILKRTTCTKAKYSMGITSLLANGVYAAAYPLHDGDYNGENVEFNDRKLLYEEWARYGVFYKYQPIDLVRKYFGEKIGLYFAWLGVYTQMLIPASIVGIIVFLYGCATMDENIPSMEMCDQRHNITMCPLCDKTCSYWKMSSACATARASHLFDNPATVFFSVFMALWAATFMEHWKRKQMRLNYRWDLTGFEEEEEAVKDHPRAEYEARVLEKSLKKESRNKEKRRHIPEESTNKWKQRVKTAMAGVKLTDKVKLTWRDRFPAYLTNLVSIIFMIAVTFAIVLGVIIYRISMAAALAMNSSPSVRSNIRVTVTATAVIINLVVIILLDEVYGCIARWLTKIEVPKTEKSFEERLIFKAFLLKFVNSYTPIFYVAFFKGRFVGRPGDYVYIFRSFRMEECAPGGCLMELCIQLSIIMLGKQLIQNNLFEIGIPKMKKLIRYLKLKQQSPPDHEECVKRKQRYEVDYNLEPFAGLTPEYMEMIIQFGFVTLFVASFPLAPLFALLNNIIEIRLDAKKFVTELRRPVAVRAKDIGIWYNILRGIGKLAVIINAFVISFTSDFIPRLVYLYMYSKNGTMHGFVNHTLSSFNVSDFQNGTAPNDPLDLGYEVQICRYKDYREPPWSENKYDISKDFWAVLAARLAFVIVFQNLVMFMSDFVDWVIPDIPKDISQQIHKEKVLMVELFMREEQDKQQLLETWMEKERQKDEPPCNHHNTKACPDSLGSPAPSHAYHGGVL
ANO1 del476-501/E649A/R541A: Anoctamin-1 (ANO1, Homo sapiens, UniProt Q5XXA6, del476-501/E649A/R541A)
target | test | setting | scale | normalized current
ANO1 del476-501/R541A | inside-out patch clamp | 30 µM, membrane voltage -20 mV |  | -0.107
TMEM16A (human) K603A/E623A | inside-out patch clamp | 30 µM, membrane voltage 120 mV |  | 1
Anoctamin-1 (ANO1, Homo sapiens, UniProt Q5XXA6, del476-501) | whole-cell voltage clamp | 10 µM, membrane voltage 0 mV, together with: 4 µM Ca2+ (saturating) |  | -0.0011
TMEM16A (human) K603A/E623A | inside-out patch clamp | 30 µM, membrane voltage 40 mV |  | 0.185
ANO1 del476-501/E649A/R541A | inside-out patch clamp | 30 µM, membrane voltage -40 mV |  | -0.169
ANO1 del476-501/E649A/R541A | inside-out patch clamp | 30 µM, membrane voltage 20 mV |  | 0.0954
TMEM16A (human) K603A/E623A | inside-out patch clamp | 30 µM, membrane voltage -40 mV |  | -0.129
Anoctamin-1 (ANO1, Homo sapiens, UniProt Q5XXA6, del476-501/K629A) | inside-out patch clamp | 30 µM, membrane voltage -60 mV |  | -0.355
ANO1 del476-501/E649A/R541A | inside-out patch clamp | 30 µM, membrane voltage 100 mV |  | 0.79
ANO1 del476-501/R541A | inhibitor, whole-cell voltage clamp | 3 µM, R515A mutant |  | 0.992
TMEM16A (human) K603A/E623A | inside-out patch clamp | 30 µM, membrane voltage 60 mV |  | 0.321
human TMEM16A K603A/E623A | inhibitor, inside-out patch clamp | 30 µM, at -100 mV |  | -0.313
Anoctamin-1 (ANO1, Homo sapiens, UniProt Q5XXA6, del476-501/M544A) | inhibitor, whole-cell voltage clamp | 10 µM, M518A mutant | reference: untreated | 0.984
